Measurements pooled from the literature.
Compare with care: the assays were run in different laboratories. Several values in a cell are separate wells, animals, samples, runs or records. pKd: −log10 of the molar value.
CDK2 with cyclin A: Cyclin-dependent kinase 2, with cyclin A (CDK2, Homo sapiens, UniProt P24941)

Compound	target or system	assay	system	setting	how to read	measurement	value
CCOc1ccc(C(C)=O)cc1Cc1c(O)nc(N)nc1O	CDK2 with cyclin A	–	–	–	–	pKd	< 4.00
c1ccc(-c2n[nH]cc2-c2ccnc3ccccc23)nc1	orf19.4518 kinase Candida albicans	MIB/MS competition binding	Candida albicans cell lysate	10 µM	reference: DMSO, lower = stronger binding	log2 fold change	1.41
C=C[C@]1(C)C[C@@H](OC(=O)CSCCN(CC)CC)[C@]2(C)[C@H](C)CC[C@]3(CCC(=O)[C@H]32)[C@@H](C)[C@@H]1O	Mycoplasmoides gallisepticum	–	chicken, infected	oral, 40 mg/kg	direction not given	air sac lesion score	3 and 2 and 1
Cc1n[nH]c2ccc(-c3cc(OC[C@@H](N)Cc4ccccc4)cnc3-c3ccoc3)cc12	orf19.4518 kinase Candida albicans	MIB/MS competition binding	Candida albicans cell lysate	100 nM	reference: DMSO, lower = stronger binding	log2 fold change	-0.0101
Oc1ccccc1-c1n[nH]cc1-c1ccnc2ccccc12	TPK2 (Candida albicans)	kinase binding, MIB/MS competition	Candida albicans lysate	10 µM	reference: DMSO	log2 fold change	0.44
CS(=O)(=O)N(CC(=O)Nc1ccccc1C(=O)N1CCOCC1)c1ccc(Cl)cc1	CDK2 with cyclin A	–	–	–	–	pKd	< 4.00
CC(C)n1ncc2c(C(=O)NCC3(C)CNC3)cc(C3CC3)nc21	coxsackievirus B3	CPE	Vero	0.05 µM	–	cell protection	1.44% and -0.996%
COc1cc(C(=O)NS(=O)(=O)c2ccccc2C)ccc1Cc1cn(C)c2ccc(NC(=O)OC3CCCC3)cc12	native VRAC	ion current, inhibitor, whole-cell patch clamp	wild-type HCT cells	3 µM, pH 6.0, extracellular pH	–	inhibition	31.3% and 48.6% and 20.3% and 9.73% and 38%
c1coc(-c2n[nH]cc2-c2ccnc3ccccc23)c1	TPK2 (Candida albicans)	kinase binding, MIB/MS competition	Candida albicans lysate	1 µM	reference: DMSO	log2 fold change	-0.28
N#Cc1ccn2c(-c3ccncc3)c(-c3ccc(F)cc3)nc2c1	orf19.4144 kinase Candida albicans	MIB/MS competition binding	Candida albicans cell lysate	1 µM	reference: DMSO, lower = stronger binding	log2 fold change	0.203
Cn1cc(-c2ccc(-c3cncc(Cl)c3N3CCC4(CCNC4=O)CC3)cc2)cn1	COLO 205	gene expression, microarray, measured: IL32 mRNA	–	concentration not given, 6 h	reference: untreated cells	log2 fold change	2.34
NC(=O)c1cnc2[nH]ccc2c1N[C@@H]1[C@@H]2CC3C[C@H]1C[C@@](O)(C3)C2	–	flow cytometry, measured: CD4+ effector memory T cells	Japanese healthy subjects, peripheral blood	oral, 100 mg twice daily, day 4	–	change from baseline	0.38%
N#Cc1ccc2c(-c3ccncc3)c(-c3ccc(F)cc3)nn2c1	orf19.6492 kinase Candida albicans	MIB/MS competition binding	Candida albicans cell lysate	100 nM	reference: DMSO, lower = stronger binding	log2 fold change	-0.0952
CC(C)NCC(O)c1ccc(O)c(O)c1 (centres unmarked)	–	–	ventricular cardiomyocytes, C57BL/6 mouse	dose not given, 0.288 s	–	sarcomere length	1.71 µm

Repeated from above:
Compound	target or system	assay	system	setting	how to read	measurement	value
c1ccc(-c2n[nH]cc2-c2ccnc3ccccc23)nc1	orf19.4518 kinase Candida albicans	MIB/MS competition binding	Candida albicans cell lysate	10 µM	reference: DMSO, lower = stronger binding	log2 fold change	1.41
